# Measured values of several laboratories.
# The chains behind the UniProt entries cited, without tags or fusion partners.
# UniProt P9WPP7, whole entry: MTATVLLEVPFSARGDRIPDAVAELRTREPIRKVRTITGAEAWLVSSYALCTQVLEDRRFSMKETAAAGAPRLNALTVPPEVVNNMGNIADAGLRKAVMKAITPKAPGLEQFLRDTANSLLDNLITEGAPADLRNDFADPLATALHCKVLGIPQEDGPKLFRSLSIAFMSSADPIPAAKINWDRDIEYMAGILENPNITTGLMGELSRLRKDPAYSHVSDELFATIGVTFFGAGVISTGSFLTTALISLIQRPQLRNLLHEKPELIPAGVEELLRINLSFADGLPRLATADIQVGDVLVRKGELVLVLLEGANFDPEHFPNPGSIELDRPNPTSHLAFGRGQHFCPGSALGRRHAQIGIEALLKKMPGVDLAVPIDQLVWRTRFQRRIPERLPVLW
# Protocols differ between the studies behind these lines. Values joined by “and” are separate records of one study, mostly repeats; a detail may differ. ± marks the error that the study gave.
# cyp121: Mycocyclosin synthase (cyp121, Mycobacterium tuberculosis, UniProt P9WPP7)
SMILES,target or system,assay,test system,setting,scale,quantity,value
NCc1ccc(-c2ncc(OCC3CCNCC3)nc2-c2ccc(-c3ccoc3)cc2)cc1,Zika virus,,"U87, FLR","1.2 µM, 48 h",,infectious virus reduction,97%
Nc1ccc2ccc(CCNCCCc3cccc(F)c3)cc2n1,Bacillus subtilis NOS,,,,baseline: KS I218V over KS wild type,selectivity ratio,5 to 6 fold
CC1CCCCCCCCCCCCC(=O)C1 (stereo not shown),Manis javanica OBP3 F52A,,,concentration not given,baseline: wild type,binding affinity,decreased
NC[C@@H](NC[C@@H]1CCCN1C[C@@H](CO)NC[C@@H](NCCc1ccc(Cl)c(Cl)c1)c1ccccc1)c1ccccc1,Acinetobacter baumannii,bacterial growth,,compound alone,,IC50,12 µM and 11.8 µM
CC(C)C[C@@H]1NC(=O)[C@H](CCC(=O)O)NC(=O)[C@@H]2CSSC[C@@H]3NC(=O)[C@H](C)NC(=O)[C@@H]4CCCN4C(=O)[C@H](CC(N)=O)NC(=O)[C@H](CSSC[C@H](NC(=O)[C@H](Cc4ccc(O)cc4)NC(=O)[C@H](CC(N)=O)NC(=O)[C@H](CO)NC(=O)[C@H](CO)NC(=O)CN4CCN(CC(=O)O)CCN(CC(=O)O)CC4)C(=O)N2)NC(=O)[C@H](CSSC[C@@H](C(=O)N[C@@H](Cc2ccccc2)C(=O)O)NC(=O)CNC(=O)[C@H]([C@@H](C)O)NC3=O)NC1=O [copper-64 labelled],T84,,,"concentration not given, 100 min, pH 5.5, 37 °C, 64Cu-labelled compound",baseline: cell-associated,internalized radioactivity,43.6 ± 3.6%
NC[C@@H](NC[C@@H]1CCCN1C[C@@H](CO)NC[C@@H](NCCC12CC3CC(CC(C3)C1)C2)c1ccccc1)c1ccccc1,Acinetobacter baumannii,bacterial growth,,compound alone,,IC90,23.1 µM
CO[C@H]1[C@H](O[C@H]([C@H]2O[C@@H](n3ccc(=O)[nH]c3=O)[C@H](O)[C@@H]2O)[C@H](NCCCNC(=O)[C@@H](NC(=O)[C@@H](NC(=O)N[C@H](C(=O)O)C(C)C)[C@@H]2CCNC(=N)N2)[C@@H](OC(=O)CCCCCCCCCCCCNC(=N)N)C(C)C)C(N)=O)O[C@H](CN)[C@H]1O,Bacillus cereus,alamar blue,NRRL B-568,,,MIC90,> 35 µg/mL
C[C@H](CS)C(=O)N[C@@H](Cc1c[nH]c2ccccc12)C(=O)O,Klebsiella pneumoniae,,VIM-1 producing,"10 µM, added: meropenem",,MIC of meropenem,16 µg/mL
Nc1n[nH]c(=O)[nH]1,Aliivibrio fischeri,"bioluminescence, Microtox",,30 min,,IC50,82000 µM
C=CC(=O)Nc1cc(-n2c(=O)ccc3cnc4ccc(-c5cn[nH]c5)cc4c32)ccc1C,Ramos,cell growth,,72 h,,GI50,0.49 µM
Cc1c(C(=O)NN2CCCCC2)nn(-c2ccc(Cl)cc2Cl)c1-c1ccc(CCCCCBr)cc1,,,"mice, food-deprived","i.p., 1 h intake, significant food intake decrease",,minimum effective dose,30 mg/kg
Cc1ccc(-c2csc(NP(=O)(O)OCC3OC(n4c[n+](Cc5ccccc5)c5c(=O)[nH]c(NC(=O)c6ccccc6)nc54)C4OC(C)(C)OC34)n2)cc1 (stereo not shown),MCF7,"cell growth, SRB",,,,IC50,37 ± 0.58 µM
CNC(C)C(=O)c1cccc(Br)c1 (racemic),,DOI-induced,FVB mouse,"subcutaneous, 10 mg/kg, added: DOI 1 mg/kg",baseline: vehicle plus DOI,head-twitch response,no effect
CCCCCCCCCCCCNC(=O)N[C@H](C(=O)N[C@H]1/C=C/CCNC(=O)/C=C/[C@H](C)NC1=O)C(C)C,Mino bortezomib-resistant,cell viability,,,baseline: EC50 resistant over parental Mino,resistance index,2 ± 0.1
CC(C)C(C(=O)N(Cc1ccc(C2CCCCC2)cc1)c1ccc(C(=O)O)cc1)N(C)S(=O)(=O)c1c(F)c(F)c(F)c(F)c1F (stereo not shown),,,"NSG mice, Pa03C xenograft","ip, 10 mg/kg, 15 days, study end",baseline: vehicle,tumour weight reduction,36%
COc1ccc2c(c1)c(CC(=O)NCCCCNC(=O)CCC(=O)OC1c3cc4c(cc3C(c3cc(OC)c(OC)c(OC)c3)C3C(=O)OCC13)OCO4)c(C)n2C(=O)c1ccc(Cl)cc1 (stereo not shown),various tumour and normal lines,inhibitor,,,,cell proliferation,inhibited
CC1(C)OC2C(COP(=O)(O)Nc3nccs3)OC(n3cnc4c(=O)[nH]c(NC(=O)c5ccccc5)nc43)C2O1 (stereo not shown),Caco-2,"cell growth, SRB",,,,IC50,> 100 µM
CN1CC[C@]23c4c5ccc(O)c4O[C@H]2c2ncc(-c4ccc(Cl)cc4)cc2C[C@@]3(OCCCc2ccccc2)[C@H]1C5,,tail flick,CD-1 mouse,sc,,A50,0.95 mg/kg
COc1ccc(CN[C@@H]2CO[C@H](C(c3ccccc3)c3ccccc3)C[C@H]2O)cc1,"benzodiazepine site, rat brain",radioligand binding,rat brain,"10 µM, added: [3H]flunitrazepam",,inhibition,20.5%
O=S(=O)(N[C@H]1CCC[C@@H](N2c3ccccc3CCc3ccccc32)[C@@H]1O)c1ccc(OC(F)(F)F)cc1,,,"mice, intracranial glioblastoma xenograft","oral, 100 mg/kg twice daily",baseline: vehicle,survival increase,~2 fold
NC[C@@H](NC[C@@H]1CCCN1C[C@@H](CO)NC[C@@H](NCCC1CC2CCC1C2)c1ccccc1)c1ccccc1 (stereo partly shown),Escherichia coli,bacterial growth,,"8 µM, fold shift of IC90, added: amikacin",,potentiation of amikacin,1.6 fold
CCc1ccc2c(-c3ccc(OC)cc3)ccc(C(CC)n3ccnc3)c2n1 (stereo not shown),cyp121,binding,,,,Kd,1.5 ± 0.18 µM
CO[C@H]1[C@H](O[C@H]([C@H]2O[C@@H](n3ccc(=O)[nH]c3=O)[C@H](O)[C@@H]2O)[C@H](NCCCNC(=O)[C@@H](NC(=O)[C@@H](NC(=O)N[C@H](C(=O)O)C(C)C)[C@@H]2CCNC(=N)N2)[C@@H](OC(=O)CCCCCCCCCCCCN(O)C(=N)N)C(C)C)C(N)=O)O[C@H](CN)[C@H]1O,Saccharomyces cerevisiae,alamar blue,BY4742,,,MIC50,> 35 µg/mL
NC1=NC2(CCCCC2)N(c2ccc(OCc3cn(CCCCOc4ccc5ccc(=O)oc5c4)nn3)cc2)C(N)=N1,Mycobacterium bovis BCG,,"resistant, thyA W133S",,,MIC50,1.6 µM
C[C@@H](O)[C@@H]1NC(=O)[C@@H]2CSCSC[C@@H](C(=O)N[C@H](CC(=O)N[C@@H](CCCNC(=N)N)C(=O)O)Cc3ccc(O)cc3)NC(=O)[C@H](CCC(N)=O)NC(=O)[C@H](Cc3ccc(O)c(I)c3)NC(=O)[C@H](CCCNC(=N)N)NC(=O)[C@H](CSSC[C@H](NC(=O)CN)C(=O)N2)NC(=O)[C@H](CCCNC(=N)N)NC(=O)[C@@H]2CCCN2C(=O)[C@H](CC(=O)O)NC1=O,pain-related receptors and channels,radioligand binding,,10 µM,,inhibition,< 50%
Oc1ccc(-c2ccc(Cn3ccnc3)cc2)cc1,cyp121,binding,,,,Kd,7.4 ± 2.3 µM
O=C(O)c1ccc(-c2cccc(C(=O)O)c2)cc1,Escherichia coli,"bacterial growth, broth microdilution",expressing OXA-48,"256 µg/mL, added: ampicillin",MIC of ampicillin,MIC of ampicillin,64 µg/mL
NC[C@@H](NC[C@@H]1CCCN1C[C@@H](CO)NC[C@@H](NCCc1ccc(-c2ccccc2)cc1)c1ccccc1)c1ccccc1,Acinetobacter baumannii,bacterial growth,,"8 µM, fold shift of IC50, added: amikacin",,potentiation of amikacin,1.6 fold
O=S(=O)(O)c1ccc(-c2ccc(S(=O)(=O)O)cc2)cc1,Escherichia coli,"bacterial growth, broth microdilution",expressing OXA-48,"8 µg/mL, added: ampicillin",MIC of ampicillin,MIC of ampicillin,512 µg/mL
CC(CCN[C@H](CN[C@H](CO)CN1CCC[C@H]1CN[C@H](CN)c1ccccc1)c1ccccc1)c1ccccc1 (stereo partly shown),Acinetobacter baumannii,bacterial growth,,"16 µM, fold shift of IC50, added: amikacin",,potentiation of amikacin,2.1 fold
Cc1ccc(-c2csc(NP(=O)(O)OCC3OC(n4cnc5c(=O)[nH]c(NC(=O)c6ccccc6)nc54)C4OC(C)(C)OC34)n2)cc1 (stereo not shown),MCF7,"cell growth, SRB",,,,IC50,32.2 ± 2.02 µM

# Repeated from above:
SMILES,target or system,assay,test system,setting,scale,quantity,value
O=S(=O)(N[C@H]1CCC[C@@H](N2c3ccccc3CCc3ccccc32)[C@@H]1O)c1ccc(OC(F)(F)F)cc1,,,"mice, intracranial glioblastoma xenograft","oral, 100 mg/kg twice daily",baseline: vehicle,survival increase,~2 fold
CO[C@H]1[C@H](O[C@H]([C@H]2O[C@@H](n3ccc(=O)[nH]c3=O)[C@H](O)[C@@H]2O)[C@H](NCCCNC(=O)[C@@H](NC(=O)[C@@H](NC(=O)N[C@H](C(=O)O)C(C)C)[C@@H]2CCNC(=N)N2)[C@@H](OC(=O)CCCCCCCCCCCCN(O)C(=N)N)C(C)C)C(N)=O)O[C@H](CN)[C@H]1O,Saccharomyces cerevisiae,alamar blue,BY4742,,,MIC50,> 35 µg/mL
Oc1ccc(-c2ccc(Cn3ccnc3)cc2)cc1,cyp121,binding,,,,Kd,7.4 ± 2.3 µM
NC1=NC2(CCCCC2)N(c2ccc(OCc3cn(CCCCOc4ccc5ccc(=O)oc5c4)nn3)cc2)C(N)=N1,Mycobacterium bovis BCG,,"resistant, thyA W133S",,,MIC50,1.6 µM
